Experimental data collected from several papers.
Lines come from different studies, so protocols differ. ± gives the spread as reported.
rep main protease: Replicase polyprotein 1ab, main protease (rep, Severe acute respiratory syndrome coronavirus 2, UniProt P0DTD1)
rep nsp14: Replicase polyprotein 1ab, nsp14 (rep, Severe acute respiratory syndrome coronavirus 2, UniProt P0DTD1)
rep nsp14 with nsp10: Replicase polyprotein 1ab, nsp14 with nsp10 (rep, Severe acute respiratory syndrome coronavirus 2, UniProt P0DTD1)
rep nsp3 Mac1 domain: Replicase polyprotein 1ab, nsp3 Mac1 domain (rep, Severe acute respiratory syndrome coronavirus 2, UniProt P0DTD1)

CC(=O)NCCCCNC(=O)C[C@H](Cc1ccc(F)cc1)NC(=O)[C@@H](Cc1ccc(Cl)cc1Cl)NC(=O)[C@H](N)Cc1ccccc1C#N  IC50 (rep main protease; enzyme activity, inhibitor): 80 nM
Cc1c(S(=O)(=O)N2CCC(C)CC2)cc(C(=O)NCc2ccccc2)n1C  IC50 (rep nsp14; enzyme activity, inhibitor): 360 nM
Cc1ccc(S(=O)(=O)N[C@H](Cc2ccccc2C#N)C(=O)N[C@H](Cc2ccc(Cl)cc2Cl)C(=O)N[C@H](CC(=O)NCCCCN(C)C)Cc2ccc(F)cc2)cc1  IC50 (rep main protease; enzyme activity, inhibitor): > 10000 nM
O=C(O)C(O)=CC(=O)C1(Cc2ccc(Cl)cc2)CCN(C(=O)OCc2ccccc2)CC1  IC50 (rep nsp14 with nsp10; exonuclease activity, inhibitor): 33800 nM
CC[C@H](C)[C@H](NC(=O)[C@H](C)NC(=O)[C@H](CCC(=O)O)NC(=O)[C@H](CCC(=O)O)NC(=O)[C@H](CC(C)C)NC(=O)[C@H](CCCCN)NC(=O)[C@H](CCCCN)NC(=O)[C@H](CCSC)NC(=O)[C@H](CCC(=O)O)NC(=O)[C@H](Cc1ccc(O)cc1)NC(=O)[C@H](CCC(=O)O)NC(=O)[C@H](CC(C)C)NC(=O)[C@H](CC(=O)O)NC(=O)[C@H](CC(C)C)NC(=O)[C@H](Cc1ccccc1)NC(=O)[C@@H](NC(=O)[C@@H](NC(=O)[C@H](CC(N)=O)NC(=O)[C@@H](NC(=O)[C@H](CCC(N)=O)NC(=O)[C@H](CC(=O)O)NC(=O)[C@H](CC(C)C)NC(=O)[C@@H](N)CO)[C@@H](C)CC)C(C)C)[C@@H](C)O)C(=O)N[C@@H](CCCCN)C(=O)N[C@@H](CCCCN)C(=O)N[C@@H](CC(C)C)C(=O)N[C@@H](CCC(=O)O)C(=O)N[C@@H](CCC(=O)O)C(=O)N[C@@H](C)C(=O)N[C@@H](Cc1ccc(O)cc1)C(=O)N[C@H](C(=O)N[C@@H](CC(=O)O)C(=O)N[C@@H](CC(C)C)C(=O)N[C@@H](CCCCN)C(=O)N[C@@H](CCC(=O)O)C(=O)N[C@@H](CC(C)C)C(=O)O)[C@@H](C)CC  IC50 (SARS-CoV-2 EG.5.1 pseudovirus; pseudovirus infection, inhibitor, luciferase; Caco-2; 24 h): 1050 nM
Cc1ccccc1S(=O)(=O)Nc1cccc(C(=O)NC2CCN(c3ncnc4[nH]cnc34)CC2)c1  relative infection (SARS-CoV-2; Wuhan-Hu-1; 0.03048 µM; relative to: untreated infected cells): 85.5%
N#Cc1ccccc1C[C@@H](N)C(=O)N[C@H](Cc1ccc(Cl)cc1Cl)C(=O)N[C@H](CC(=O)NCCCCN1CCOCC1)Cc1ccc(F)cc1  IC50 (rep main protease; enzyme activity, inhibitor): 70 nM
COc1cccc(C(=O)N(CCC(=O)N2CCNCC2)Cc2cccc(Cl)c2)c1  IC50 (rep nsp3 Mac1 domain; enzyme activity, inhibitor, AlphaScreen): 74900 ± 4500 nM
Oc1nc(/C=C/c2ccc(Cl)cc2Cl)cc(C(F)(F)F)n1  IC50 (Replicase polyprotein 1ab, nsp16 with nsp10 (rep, Severe acute respiratory syndrome coronavirus 2, UniProt P0DTD1); enzyme activity; 2 h preincubation, no DTT): 9000 ± 1000 nM
O=C(O)c1cc(OC2OC(CO)C(O)C(O)C2O)c2ccccc2c1O (centres unmarked)  IC50 (rep nsp3 Mac1 domain; enzyme activity, inhibitor, fluorescence polarization): > 300000 nM
O=C(O)C(O)=CC(=O)C1(Cc2ccc(Cl)cc2)CCN(Cc2ccc3ccccc3c2)CC1  IC50 (rep nsp14 with nsp10; exonuclease activity, inhibitor): > 50000 nM
CS(=O)(=O)CCCNC(=O)C[C@H](Cc1ccc(F)cc1)NC(=O)[C@@H](Cc1ccc(Cl)cc1Cl)NC(=O)[C@H](N)Cc1ccccc1C#N  IC50 (rep main protease; enzyme activity, inhibitor): 100 nM
COc1cccc(CNC(=O)c2cc(S(=O)(=O)N3CCC(C)CC3)c(C)n2C)c1  IC50 (rep nsp14; enzyme activity, inhibitor): 200 nM
CN(C)CCCCNC(=O)C[C@H](Cc1ccc(F)cc1)NC(=O)[C@@H](Cc1ccc(Cl)cc1Cl)NC(=O)[C@@H](O)Cc1ccccc1C#N  IC50 (rep main protease; enzyme activity, inhibitor): 600 nM
O=C(NCc1ccc(F)cc1)C1C(=O)N(O)C(=O)c2cc([N+](=O)[O-])ccc21 (centres unmarked)  IC50 (rep nsp14 with nsp10; exonuclease activity, inhibitor): 14700 ± 4600 nM
CC[C@H](C)[C@H](NC(=O)[C@H](C)NC(=O)[C@H](CCC(=O)O)NC(=O)[C@H](CCC(=O)O)NC(=O)[C@H](CC(C)C)NC(=O)[C@H](CCCCN)NC(=O)[C@H](CCCCN)NC(=O)[C@H](CCSC)NC(=O)[C@H](CCC(=O)O)NC(=O)[C@H](Cc1ccc(O)cc1)NC(=O)[C@H](CCC(=O)O)NC(=O)[C@H](CC(C)C)NC(=O)[C@H](CC(=O)O)NC(=O)[C@H](CC(C)C)NC(=O)[C@H](Cc1ccccc1)NC(=O)[C@H](Cc1ccccc1)NC(=O)[C@@H](NC(=O)[C@H](CC(N)=O)NC(=O)[C@@H](NC(=O)[C@H](CCC(N)=O)NC(=O)[C@H](CC(=O)O)NC(=O)[C@H](CC(C)C)NC(=O)[C@@H](N)CO)[C@@H](C)CC)C(C)C)C(=O)N[C@@H](CCCCN)C(=O)N[C@@H](CCCCN)C(=O)N[C@@H](CC(C)C)C(=O)N[C@@H](CCC(=O)O)C(=O)N[C@@H](CCC(=O)O)C(=O)N[C@H](C(=O)N[C@@H](Cc1ccc(O)cc1)C(=O)N[C@H](C(=O)N[C@@H](CC(=O)O)C(=O)N[C@@H](CC(C)C)C(=O)N[C@@H](CCCCN)C(=O)N[C@@H](CCC(=O)O)C(=O)N[C@@H](CC(C)C)C(=O)O)[C@@H](C)CC)[C@@H](C)O  IC50 (SARS-CoV-2 EG.5.1 pseudovirus; pseudovirus infection, inhibitor, luciferase; Caco-2; 24 h, dual mutations): 230 nM
CC(C)(C)c1ccc(-c2cn(-c3ccc(C(=O)C=C(O)C(=O)O)cc3)nn2)cc1  IC50 (rep nsp14 with nsp10; exonuclease activity, inhibitor): > 50000 nM
O=C(Oc1cccc2cccnc12)c1cccs1  IC50 (rep nsp3 Mac1 domain; enzyme activity, inhibitor, AlphaScreen): 7950 ± 800 nM
Cc1ccc(S(=O)(=O)Nc2cccc(C(=O)NC3CCN(c4ncnc5[nH]cnc45)CC3)c2)cc1Cl  relative infection (SARS-CoV-2; Wuhan-Hu-1; 0.09145 µM; relative to: untreated infected cells): 82.8%
CC1=C[C@@H](CN2CCN(c3ncccn3)CC2)[C@H](C(C)C)C[C@H]1Cc1nnc(Cc2c[nH]c3ccccc23)o1  IC50 (Replicase polyprotein 1ab, nsp4-nsp5-nsp6 precursor (rep, Severe acute respiratory syndrome coronavirus 2, UniProt P0DTD1); reporter gene, inhibitor, Rev-Nluc cell): > 50000 nM
CC(C)C[C@@H](C(=O)N[C@@H](C[C@@H]1CCNC1=O)C(=O)C(=O)NC1CC1)N1C[C@@H](NC(=O)OCc2cc(F)cc(F)c2)CCC1=O  IC50 (rep main protease; inhibitor): 1920 nM
O=C(O)C(O)=CC(=O)c1cc(Oc2ccccc2)cc(Oc2ccccc2)c1  IC50 (rep nsp14 with nsp10; exonuclease activity, inhibitor): > 50000 nM
N#CCNC(=O)C[C@H](Cc1ccc(F)cc1)NC(=O)[C@@H](Cc1ccc(Cl)cc1Cl)NC(=O)[C@H](N)Cc1ccccc1C#N  IC50 (rep main protease; enzyme activity, inhibitor): 600 nM

Some of these lines once more:
O=C(O)C(O)=CC(=O)C1(Cc2ccc(Cl)cc2)CCN(C(=O)OCc2ccccc2)CC1  IC50 (rep nsp14 with nsp10; exonuclease activity, inhibitor): 33800 nM
Cc1ccc(S(=O)(=O)N[C@H](Cc2ccccc2C#N)C(=O)N[C@H](Cc2ccc(Cl)cc2Cl)C(=O)N[C@H](CC(=O)NCCCCN(C)C)Cc2ccc(F)cc2)cc1  IC50 (rep main protease; enzyme activity, inhibitor): > 10000 nM
CC1=C[C@@H](CN2CCN(c3ncccn3)CC2)[C@H](C(C)C)C[C@H]1Cc1nnc(Cc2c[nH]c3ccccc23)o1  IC50 (Replicase polyprotein 1ab, nsp4-nsp5-nsp6 precursor (rep, Severe acute respiratory syndrome coronavirus 2, UniProt P0DTD1); reporter gene, inhibitor, Rev-Nluc cell): > 50000 nM
